Assay results gathered from unrelated publications.
Each line is one published result; not all experiments were run side by side. ± gives the spread as reported.
Target: Histone deacetylase 7 (HDAC7, Homo sapiens, UniProt Q8WUI4)
Action: inhibitor
Residues used in one study (Q8WUI4 1-952): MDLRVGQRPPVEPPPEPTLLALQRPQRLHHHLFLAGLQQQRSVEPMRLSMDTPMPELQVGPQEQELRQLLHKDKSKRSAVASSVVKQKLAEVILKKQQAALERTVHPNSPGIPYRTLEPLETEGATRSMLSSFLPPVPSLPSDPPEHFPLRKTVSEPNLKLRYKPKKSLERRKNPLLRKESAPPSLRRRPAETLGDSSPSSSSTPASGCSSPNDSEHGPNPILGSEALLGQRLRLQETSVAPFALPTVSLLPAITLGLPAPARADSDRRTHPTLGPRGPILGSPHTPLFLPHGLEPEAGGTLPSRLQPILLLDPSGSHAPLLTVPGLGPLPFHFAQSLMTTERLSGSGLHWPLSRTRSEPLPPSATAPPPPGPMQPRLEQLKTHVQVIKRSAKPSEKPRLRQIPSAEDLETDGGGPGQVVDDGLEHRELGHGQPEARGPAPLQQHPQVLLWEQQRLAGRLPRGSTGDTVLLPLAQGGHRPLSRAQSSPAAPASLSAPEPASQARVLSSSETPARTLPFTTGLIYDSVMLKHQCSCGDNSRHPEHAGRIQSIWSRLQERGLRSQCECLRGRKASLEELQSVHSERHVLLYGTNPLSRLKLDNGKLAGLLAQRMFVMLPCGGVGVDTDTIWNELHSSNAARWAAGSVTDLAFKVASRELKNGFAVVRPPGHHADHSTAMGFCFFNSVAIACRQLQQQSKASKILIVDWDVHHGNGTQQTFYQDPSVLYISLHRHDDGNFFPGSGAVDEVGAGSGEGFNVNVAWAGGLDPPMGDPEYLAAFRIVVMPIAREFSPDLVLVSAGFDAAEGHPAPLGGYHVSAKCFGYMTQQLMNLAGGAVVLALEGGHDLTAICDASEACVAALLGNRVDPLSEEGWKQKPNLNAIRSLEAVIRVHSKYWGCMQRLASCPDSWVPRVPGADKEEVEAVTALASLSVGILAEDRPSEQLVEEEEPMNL

O=C(NO)c1ccc(CN2c3ccccc3Oc3ccc(C(=O)Nc4ccc(C(=O)c5ccccc5)cc4)cc32)cc1
IC50 (enzyme activity): 1.51 ± 0.15 µM

O=C1CCC(N2C(=O)c3ccc(N4CCC(C(=O)N5CCC(CCN6CCC(CNC(=O)c7cccc(-c8noc(C(F)(F)F)n8)c7)(c7nc(-c8ccccc8)cs7)CC6)CC5)CC4)cc3C2=O)C(=O)N1 (stereo not drawn)
IC50 (enzyme activity): 2.4 µM

O=C(O)c1ccc(Cn2sc3ccccc3c2=O)cc1
IC50 (enzyme activity): 4.1 µM

Cc1ncc2c(n1)CN(C(=O)Nc1nc(-c3cccs3)ccc1N)C2
IC50 (deacetylase activity, recombinant enzyme): > 30 µM

COC(=O)c1ccc(Cn2sc3ccccc3c2=O)cc1
IC50 (enzyme activity): 8.79 µM

Cn1cc2c(n1)CN(C(=O)Nc1nc(-c3ccc(F)cc3)ccc1N)C2
IC50 (deacetylase activity, recombinant enzyme): > 30 µM

N/C(=N\O)c1ccc2c(c1)Oc1ccccc1N2Cc1cccc(C(=O)NO)c1
IC50 (enzyme activity): 21.7 µM

COCCn1cc2c(n1)CN(C(=O)Nc1nc(-c3ccc(F)cc3F)ccc1N)C2
IC50 (deacetylase activity, recombinant enzyme): > 30 µM

O=c1c2ccccc2sn1Cc1ccccc1
IC50 (enzyme activity): 6.08 µM

For quick reference, copied from above:
N/C(=N\O)c1ccc2c(c1)Oc1ccccc1N2Cc1cccc(C(=O)NO)c1
IC50 (enzyme activity): 21.7 µM
